Measurements of several laboratories.
Compare with care: the assays were run in different laboratories. “And” joins repeats or separate records; there may be more than shown. Numbers after ± are the reported error.
AGER: Advanced glycosylation end product-specific receptor (AGER, Homo sapiens, UniProt Q15109)
Chain of UniProt Q9SZU7 (whole entry, unmodified, looked up): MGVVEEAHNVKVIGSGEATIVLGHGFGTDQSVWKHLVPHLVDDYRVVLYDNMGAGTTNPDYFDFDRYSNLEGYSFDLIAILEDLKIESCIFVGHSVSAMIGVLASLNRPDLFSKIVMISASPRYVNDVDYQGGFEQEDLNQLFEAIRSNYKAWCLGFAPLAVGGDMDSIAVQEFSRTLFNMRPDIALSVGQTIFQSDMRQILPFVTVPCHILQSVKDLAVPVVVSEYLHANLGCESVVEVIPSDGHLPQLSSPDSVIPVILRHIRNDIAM
Chain of UniProt P08191 (whole entry, looked up): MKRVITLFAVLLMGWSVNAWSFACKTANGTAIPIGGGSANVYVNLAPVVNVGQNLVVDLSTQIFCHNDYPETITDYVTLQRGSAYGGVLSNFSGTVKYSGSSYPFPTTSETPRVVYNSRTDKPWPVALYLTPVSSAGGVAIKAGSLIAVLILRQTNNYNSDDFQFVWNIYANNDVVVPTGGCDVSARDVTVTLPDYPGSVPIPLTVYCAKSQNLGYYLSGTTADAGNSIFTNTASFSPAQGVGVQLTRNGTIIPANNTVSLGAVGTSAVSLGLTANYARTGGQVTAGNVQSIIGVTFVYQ
Chain of UniProt Q15109 (whole entry, looked up): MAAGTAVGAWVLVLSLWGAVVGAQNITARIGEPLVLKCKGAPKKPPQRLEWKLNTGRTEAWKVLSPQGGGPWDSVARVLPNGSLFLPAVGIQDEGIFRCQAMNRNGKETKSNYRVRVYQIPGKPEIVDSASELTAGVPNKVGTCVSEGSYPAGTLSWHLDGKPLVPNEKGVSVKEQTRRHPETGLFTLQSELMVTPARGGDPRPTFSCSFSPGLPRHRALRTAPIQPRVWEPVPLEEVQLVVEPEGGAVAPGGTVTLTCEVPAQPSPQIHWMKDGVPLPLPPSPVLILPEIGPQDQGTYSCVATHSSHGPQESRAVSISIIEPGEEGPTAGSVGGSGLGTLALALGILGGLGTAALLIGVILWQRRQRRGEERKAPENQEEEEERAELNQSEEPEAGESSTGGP
Chain of UniProt Q9P286 (whole entry, looked up): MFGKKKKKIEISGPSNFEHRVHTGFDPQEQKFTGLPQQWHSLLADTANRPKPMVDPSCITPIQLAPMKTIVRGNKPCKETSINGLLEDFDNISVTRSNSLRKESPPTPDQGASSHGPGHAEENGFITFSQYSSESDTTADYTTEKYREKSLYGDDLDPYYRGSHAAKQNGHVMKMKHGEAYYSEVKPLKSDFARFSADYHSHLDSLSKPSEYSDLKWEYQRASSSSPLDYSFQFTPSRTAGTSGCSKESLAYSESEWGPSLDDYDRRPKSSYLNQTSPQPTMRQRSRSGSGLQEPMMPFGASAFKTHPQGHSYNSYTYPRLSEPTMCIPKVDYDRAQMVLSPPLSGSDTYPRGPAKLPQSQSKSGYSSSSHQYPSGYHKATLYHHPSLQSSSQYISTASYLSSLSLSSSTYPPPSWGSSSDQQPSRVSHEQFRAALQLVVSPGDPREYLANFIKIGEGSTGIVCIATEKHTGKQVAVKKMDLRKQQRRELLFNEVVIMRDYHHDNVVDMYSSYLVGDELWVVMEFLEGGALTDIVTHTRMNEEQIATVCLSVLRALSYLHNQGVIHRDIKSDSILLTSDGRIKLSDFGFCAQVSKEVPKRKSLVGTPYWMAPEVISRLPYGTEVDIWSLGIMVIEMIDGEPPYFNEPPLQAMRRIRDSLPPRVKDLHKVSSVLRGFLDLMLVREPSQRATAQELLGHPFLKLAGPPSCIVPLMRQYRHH
Chain of UniProt P22748 (whole entry, looked up): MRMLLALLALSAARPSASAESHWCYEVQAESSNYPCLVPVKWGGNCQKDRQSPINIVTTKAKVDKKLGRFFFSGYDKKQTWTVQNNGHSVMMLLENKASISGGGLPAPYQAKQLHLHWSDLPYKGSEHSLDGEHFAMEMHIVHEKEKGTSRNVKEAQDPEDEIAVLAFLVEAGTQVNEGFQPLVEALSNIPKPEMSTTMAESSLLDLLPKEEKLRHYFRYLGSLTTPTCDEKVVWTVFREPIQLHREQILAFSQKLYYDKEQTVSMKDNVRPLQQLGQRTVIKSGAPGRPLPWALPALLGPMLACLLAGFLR
Chain of UniProt P42681 (whole entry, looked up): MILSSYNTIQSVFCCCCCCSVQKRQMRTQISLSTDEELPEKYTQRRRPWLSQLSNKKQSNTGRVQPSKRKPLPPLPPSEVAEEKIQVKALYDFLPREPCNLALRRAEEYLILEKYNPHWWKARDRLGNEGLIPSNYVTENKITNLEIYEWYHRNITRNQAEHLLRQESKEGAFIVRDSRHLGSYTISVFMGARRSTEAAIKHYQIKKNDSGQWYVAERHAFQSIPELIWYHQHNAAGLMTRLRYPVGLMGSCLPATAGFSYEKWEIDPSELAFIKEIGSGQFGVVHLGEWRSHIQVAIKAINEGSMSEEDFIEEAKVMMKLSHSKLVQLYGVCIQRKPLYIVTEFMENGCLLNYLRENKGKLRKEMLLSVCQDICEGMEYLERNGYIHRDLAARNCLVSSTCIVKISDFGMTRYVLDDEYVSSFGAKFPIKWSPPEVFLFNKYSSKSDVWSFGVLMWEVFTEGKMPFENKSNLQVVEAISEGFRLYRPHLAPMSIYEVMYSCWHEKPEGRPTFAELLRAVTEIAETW
Chain of UniProt Q9NSU2 (whole entry, looked up): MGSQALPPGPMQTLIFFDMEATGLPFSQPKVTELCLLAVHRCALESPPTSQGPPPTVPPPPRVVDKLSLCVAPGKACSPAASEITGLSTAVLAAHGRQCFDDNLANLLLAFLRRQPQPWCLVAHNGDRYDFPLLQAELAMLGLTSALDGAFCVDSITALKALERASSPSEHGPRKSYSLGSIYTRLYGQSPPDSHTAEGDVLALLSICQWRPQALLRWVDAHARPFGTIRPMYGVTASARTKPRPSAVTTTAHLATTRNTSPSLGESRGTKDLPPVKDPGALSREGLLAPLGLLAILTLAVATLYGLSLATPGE
Chain of UniProt P50750 (whole entry, looked up): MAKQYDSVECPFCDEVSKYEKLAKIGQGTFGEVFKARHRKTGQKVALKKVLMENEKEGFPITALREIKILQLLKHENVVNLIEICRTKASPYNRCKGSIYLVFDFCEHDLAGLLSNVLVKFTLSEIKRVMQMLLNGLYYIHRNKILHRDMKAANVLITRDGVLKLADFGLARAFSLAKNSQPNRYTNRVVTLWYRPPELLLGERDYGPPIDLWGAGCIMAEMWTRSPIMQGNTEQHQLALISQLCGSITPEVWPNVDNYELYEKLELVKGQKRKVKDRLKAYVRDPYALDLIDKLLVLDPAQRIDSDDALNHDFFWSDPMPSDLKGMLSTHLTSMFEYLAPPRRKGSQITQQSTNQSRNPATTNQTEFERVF
Chain of UniProt P50552 (whole entry, looked up): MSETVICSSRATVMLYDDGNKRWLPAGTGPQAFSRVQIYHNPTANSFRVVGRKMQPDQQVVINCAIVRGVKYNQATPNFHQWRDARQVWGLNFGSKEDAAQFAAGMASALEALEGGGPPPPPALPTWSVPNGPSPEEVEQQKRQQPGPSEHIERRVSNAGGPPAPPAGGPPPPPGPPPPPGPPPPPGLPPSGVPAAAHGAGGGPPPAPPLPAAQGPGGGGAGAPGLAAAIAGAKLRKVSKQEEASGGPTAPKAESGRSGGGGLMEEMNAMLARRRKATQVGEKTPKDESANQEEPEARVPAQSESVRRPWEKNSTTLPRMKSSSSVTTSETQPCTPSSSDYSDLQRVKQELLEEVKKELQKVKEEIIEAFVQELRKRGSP
Chain of UniProt P05067 (whole entry, looked up): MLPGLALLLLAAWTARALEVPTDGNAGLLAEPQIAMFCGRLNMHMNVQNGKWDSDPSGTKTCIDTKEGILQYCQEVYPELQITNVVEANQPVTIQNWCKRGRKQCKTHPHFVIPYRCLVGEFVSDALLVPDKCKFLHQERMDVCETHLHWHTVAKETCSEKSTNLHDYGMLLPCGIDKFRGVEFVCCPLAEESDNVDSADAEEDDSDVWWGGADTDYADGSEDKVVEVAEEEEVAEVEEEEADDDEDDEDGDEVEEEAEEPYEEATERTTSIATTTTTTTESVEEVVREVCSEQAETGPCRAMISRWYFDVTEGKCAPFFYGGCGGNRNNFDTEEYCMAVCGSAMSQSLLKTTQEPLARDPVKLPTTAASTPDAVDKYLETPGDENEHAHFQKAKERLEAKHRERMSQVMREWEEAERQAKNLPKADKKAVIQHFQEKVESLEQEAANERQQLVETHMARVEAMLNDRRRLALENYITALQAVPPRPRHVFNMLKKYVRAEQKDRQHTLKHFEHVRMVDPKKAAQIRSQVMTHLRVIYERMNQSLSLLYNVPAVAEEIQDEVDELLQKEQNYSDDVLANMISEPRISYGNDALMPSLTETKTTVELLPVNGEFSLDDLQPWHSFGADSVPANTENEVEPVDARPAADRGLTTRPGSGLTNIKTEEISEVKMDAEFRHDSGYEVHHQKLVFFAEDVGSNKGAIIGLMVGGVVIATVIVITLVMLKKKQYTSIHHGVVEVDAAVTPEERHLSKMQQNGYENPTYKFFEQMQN
Chain of UniProt O75469 (whole entry, looked up): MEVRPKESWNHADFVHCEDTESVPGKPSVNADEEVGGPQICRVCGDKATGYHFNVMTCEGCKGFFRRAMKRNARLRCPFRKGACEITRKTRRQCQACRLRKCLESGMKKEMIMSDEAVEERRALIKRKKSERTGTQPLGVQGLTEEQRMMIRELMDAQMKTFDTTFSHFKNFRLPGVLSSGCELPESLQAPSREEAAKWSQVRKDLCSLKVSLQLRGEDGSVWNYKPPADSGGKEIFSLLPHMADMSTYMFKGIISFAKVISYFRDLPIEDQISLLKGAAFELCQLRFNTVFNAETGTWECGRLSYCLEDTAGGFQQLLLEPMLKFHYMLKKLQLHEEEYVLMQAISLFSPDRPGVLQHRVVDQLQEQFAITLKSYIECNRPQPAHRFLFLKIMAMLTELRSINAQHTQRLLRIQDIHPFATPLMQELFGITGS

O=C(Nc1ccc(Cl)cc1)Nc1ccc(C2=NNC(c3ccc(NC(=O)Nc4ccc(Cl)cc4)cc3)C2)cc1 (stereo not shown)  Kd (AGER; binding): 17.1 ± 2 µM
Cc1cc(C)c(S(=O)(=O)Nc2cccc(C(F)(F)F)c2)c(C)c1  Kd (PLCG2 (Homo sapiens, UniProt P16885); binding, surface plasmon resonance; 25 °C, immobilised residues 1-1195): 57 µM
Cc1c[nH]c2nccc(-c3ccc(C(=O)N[C@@H]4c5c(F)cc(C(F)F)cc5C[C@@H]4O)cn3)c12  Kd (PAK5 (Homo sapiens, UniProt Q9P286); binding, competition with immobilised ligand): 0.675 µM
Clc1ccc2c(c1)N(CCCN1CCN(CCn3cc(CN4CCCNCCN(Cc5cn(CCN6CCN(CCCN7c8ccccc8Sc8ccc(Cl)cc87)CC6)nn5)CCCNCC4)nn3)CC1)c1ccccc1S2  Kd (APP (Homo sapiens, UniProt P05067); binding, NMR): 4.6 µM
CCOC(=O)C1CC(CC)C2C=CC3CCN(C(=O)C4CCC5C=CC6(CCCN6C(=O)C(Cc6ccccc6Cl)NC(C)=O)C(=O)N54)C3C(=O)N12 (stereo not shown)  Kd (Tyrosine-protein kinase Fyn, SH3 domain (FYN, Homo sapiens, UniProt P06241); binding): 1900 µM
C=CC(=O)N1C[C@H](C)N(c2nc(OC[C@@]34CCCN3C[C@H](F)C4)nc3c(F)c(-c4ccc(F)c5sc(N)c(C#N)c45)c(C(F)(F)F)cc23)C[C@H]1C  Kd (GTPase KRas, GDP-bound (KRAS, Homo sapiens, UniProt P01116); microscale thermophoresis): 0.016 ± 0.0038 µM
COc1ccc(OC)c(-n2nnc(C(=O)Nc3cc(OCCOCCOCCOCCNC(=O)CCc4ccc5n4[B-](F)(F)[N+]4=C(C)C=C(C)C4=C5)cc(C(C)(C)C)c3)c2C)c1  Kd (NR1I2 (Homo sapiens, UniProt O75469); binding): 0.048 µM
Cc1cccc2c1N(C(=O)n1ccnn1)CC2  Kd (KAI2 (Arabidopsis thaliana, UniProt Q9SZU7, F26A); ITC; F26A mutant): 245 µM and 193 µM and 142 µM
CC(=O)NC(Cc1ccccc1Cl)C(=O)N1CCCC12C=CC1CCC(C(=O)N3CCC4C=CC5CCC(C(=O)O)N5C(=O)C43)N1C2=O (stereo not shown)  Kd (VASP (Homo sapiens, UniProt P50552); binding, fluorescence): 2.3 µM
O=C(Nc1ccc(F)cc1)Nc1ccc(C2=NNC(c3ccc(NC(=O)Nc4ccc(F)cc4)cc3)C2)cc1 (stereo not shown)  Kd (AGER; binding): 10.7 ± 4 µM
CCc1nc2cc3ccccc3cc2cc1C(=O)N1CCC[C@H]1C(=O)N[C@@H](C/C=C/C[C@H](NC(=O)[C@@H]1CCCN1C(=O)c1cc2cc3ccccc3cc2nc1CC)C(=O)N[C@@H](CCCCN)C(=O)NCCCN)C(=O)N[C@@H](CCCCN)C(=O)NCCCN  Kd ((CCUG)10 RNA; SPR): 0.013 µM
O=C(Nc1cc(-c2ccnc3[nH]ccc23)c(Cl)cn1)[C@H]1CCC[C@@H](NC(=O)C(F)(F)F)C1  Kd (CDK9 (Homo sapiens, UniProt P50750); binding, competition with immobilised ligand): 0.00028 µM
CCCC[C@@H]1NC(=O)[C@H](Cc2ccc(O)cc2)NC(=O)[C@@H]2CCCN2C(=O)[C@H](CC(=O)O)NC(=O)[C@H](C)NC(=O)[C@H](Cc2ccccc2)NC(=O)[C@@H]2CSCCC(=O)N3CN(CN(C3)C(=O)CCSC[C@@H](C(=O)N[C@@H](C)C(N)=O)NC1=O)C(=O)CCSC[C@H](NC(C)=O)C(=O)N[C@@H](CC(C)(C)C)C(=O)N1CCC[C@H]1C(=O)N[C@@H](CCC(=O)O)C(=O)N[C@H](CCCCNC(=O)CCc1cn(CCOCCOCCOCCN(CCOCCOCCOCCC(=O)N[C@H]3CSCCC(=O)N4CN5CN(C4)C(=O)CCSC[C@H](NC(=O)[C@@H](CC(=O)O)NC(=O)[C@H](Cc4cccc6ccccc46)NC(=O)[C@@H]4CCCN4C3=O)C(=O)N[C@@H](CCSC)C(=O)N[C@@H](CCCCNC(=N)N)C(=O)N[C@@H](CC(=O)O)C(=O)N[C@@H](Cc3c[nH]c4ccccc34)C(=O)N[C@@H](CO)C(=O)N[C@@H]([C@@H](C)O)C(=O)N3CCC[C@H]3C(=O)N3C[C@H](O)C[C@H]3C(=O)N[C@@H](Cc3c[nH]c4ccccc34)C(=O)N[C@H](C(N)=O)CSCCC5=O)CCOCCOCCOCCn3cc(CCC(=O)NCCCC[C@H]4NC(=O)[C@H](CCC(=O)O)NC(=O)[C@@H]5CCCN5C(=O)[C@H](CC(C)(C)C)NC(=O)[C@@H](NC(C)=O)CSCCC(=O)N5CN6CN(C5)C(=O)CCSC[C@H](NC(=O)[C@H](Cc5ccc(O)cc5)NC(=O)[C@@H]5CCCN5C4=O)C(=O)N[C@@H](Cc4ccccc4)C(=O)N[C@@H](C)C(=O)N[C@@H](CC(=O)O)C(=O)N4CCC[C@H]4C(=O)N[C@@H](Cc4ccc(O)cc4)C(=O)N[C@@H](CCCC)C(=O)N[C@H](C(=O)N[C@@H](CCCCNC(=O)CCOCCOCCOCCOCCOCCOCCOCCOCCOCCOCCOCCOCCNC(=O)CCCC[C@@H]4SC[C@@H]5NC(=O)N[C@@H]54)C(N)=O)CSCCC6=O)nn3)nn1)C(=O)N1CCC[C@H]1C(=O)N[C@@H](Cc1ccc(O)cc1)C(=O)N2  Kd (Tumor necrosis factor receptor superfamily member 5 (Homo sapiens, UniProt P25942); binding, SPR): > 0.1 µM
CCc1nc2cc3ccccc3cc2cc1C(=O)N[C@@H](CCCCN)C(=O)N[C@@H](C/C=C\C[C@H](NC(=O)[C@H](CCCCN)NC(=O)c1cc2cc3ccccc3cc2nc1CC)C(=O)N1CCC[C@H]1C(=O)NCCCN)C(=O)N1CCC[C@H]1C(=O)NCCCN  Kd ((CCUG)10 RNA; SPR): 0.275 µM
C=CC(=O)N1CCCN(C(=O)c2cc(Sc3cnc(NC(=O)C4CC4)s3)c(C)cc2OC)C[C@H]1C  Kd (TXK (Homo sapiens, UniProt P42681); binding, competition with immobilised ligand): 2.7 µM
Nc1ncnc2c1ncn2C1OC(CN(CCCC2CNCc3c2ccc(Cl)c3Cl)CCC(N)C(=O)O)C(O)C1O (mixture of isomers)  Kd (PNMT (Homo sapiens, UniProt P11086); ITC; pH 8.0, 25 °C, first site, SAH-bound enzyme): 0.01 ± 0.003 µM
O=C(Nc1ccc(C(=O)Nc2ccc3c(O)cc(S(=O)(=O)O)cc3c2)cc1)c1ccccc1  Kd (TREX1 (Homo sapiens, UniProt Q9NSU2); binding, fluorescence): 20.8 µM
CCc1nc2cc3ccccc3cc2cc1C(=O)N1CCC[C@H]1C(=O)N[C@@H](CCC/C=C/CCC[C@H](NC(=O)[C@@H]1CCCN1C(=O)c1cc2cc3ccccc3cc2nc1CC)C(=O)N[C@@H](CCCCN)C(=O)NCCCN)C(=O)N[C@@H](CCCCN)C(=O)NCCCN  Kd ((CCUG)10 RNA; SPR): 0.248 µM
Cc1ccc(CN)cc1  Kd (Maoa (Rattus norvegicus, UniProt P21396); pH 7.5, deprotonated amine, pKa-corrected): 0.39 µM
NS(=O)(=O)c1cc(C(=O)NCCCC(=O)O)c(NC2CCCCC2)cc1Cl  Kd (CA4 (Homo sapiens, UniProt P22748); pH 7): 2 µM
NCCCC[C@H](NC(=O)[C@H](C/C=C/C[C@H](NC(=O)[C@@H]1CCCN1)C(=O)N[C@@H](CCCCN)C(=O)NCCCN)NC(=O)[C@@H]1CCCN1)C(=O)NCCCN  Kd ((CCUG)10 RNA; SPR): 31.1 µM
CCCCCCCO[C@H]1CO[C@H](CO)[C@@H](O)[C@H](O)[C@@H]1O  Kd (Type 1 fimbrin D-mannose specific adhesin, lectin domain (fimH, Escherichia coli K-12, UniProt P08191); binding, isothermal titration calorimetry; 15 °C, individual titrations): 0.186 µM and 0.154 µM

A few entries again:
CCc1nc2cc3ccccc3cc2cc1C(=O)N1CCC[C@H]1C(=O)N[C@@H](CCC/C=C/CCC[C@H](NC(=O)[C@@H]1CCCN1C(=O)c1cc2cc3ccccc3cc2nc1CC)C(=O)N[C@@H](CCCCN)C(=O)NCCCN)C(=O)N[C@@H](CCCCN)C(=O)NCCCN  Kd ((CCUG)10 RNA; SPR): 0.248 µM
CCc1nc2cc3ccccc3cc2cc1C(=O)N[C@@H](CCCCN)C(=O)N[C@@H](C/C=C\C[C@H](NC(=O)[C@H](CCCCN)NC(=O)c1cc2cc3ccccc3cc2nc1CC)C(=O)N1CCC[C@H]1C(=O)NCCCN)C(=O)N1CCC[C@H]1C(=O)NCCCN  Kd ((CCUG)10 RNA; SPR): 0.275 µM
O=C(Nc1ccc(C(=O)Nc2ccc3c(O)cc(S(=O)(=O)O)cc3c2)cc1)c1ccccc1  Kd (TREX1 (Homo sapiens, UniProt Q9NSU2); binding, fluorescence): 20.8 µM
